Assay results collected from several papers.
Parts stem from different laboratories: compare values within a part only.
Chain of UniProt Q9H093 (whole entry, looked up): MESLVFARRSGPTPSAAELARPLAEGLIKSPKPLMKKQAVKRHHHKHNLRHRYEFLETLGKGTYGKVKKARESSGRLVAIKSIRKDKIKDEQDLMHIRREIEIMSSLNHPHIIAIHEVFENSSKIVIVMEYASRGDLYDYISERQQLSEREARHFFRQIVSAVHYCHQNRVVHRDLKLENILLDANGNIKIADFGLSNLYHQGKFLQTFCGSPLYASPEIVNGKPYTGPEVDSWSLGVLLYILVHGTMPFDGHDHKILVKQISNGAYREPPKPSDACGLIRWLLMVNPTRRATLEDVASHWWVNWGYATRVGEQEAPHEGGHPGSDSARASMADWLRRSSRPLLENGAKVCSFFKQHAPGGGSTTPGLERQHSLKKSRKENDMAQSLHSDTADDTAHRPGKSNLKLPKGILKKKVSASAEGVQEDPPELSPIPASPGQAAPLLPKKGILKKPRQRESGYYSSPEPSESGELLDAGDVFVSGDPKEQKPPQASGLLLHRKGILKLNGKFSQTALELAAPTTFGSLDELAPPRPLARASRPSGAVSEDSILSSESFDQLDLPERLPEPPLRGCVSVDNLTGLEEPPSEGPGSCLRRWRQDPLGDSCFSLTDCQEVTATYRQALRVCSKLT
Chain of UniProt O60285 (whole entry, looked up): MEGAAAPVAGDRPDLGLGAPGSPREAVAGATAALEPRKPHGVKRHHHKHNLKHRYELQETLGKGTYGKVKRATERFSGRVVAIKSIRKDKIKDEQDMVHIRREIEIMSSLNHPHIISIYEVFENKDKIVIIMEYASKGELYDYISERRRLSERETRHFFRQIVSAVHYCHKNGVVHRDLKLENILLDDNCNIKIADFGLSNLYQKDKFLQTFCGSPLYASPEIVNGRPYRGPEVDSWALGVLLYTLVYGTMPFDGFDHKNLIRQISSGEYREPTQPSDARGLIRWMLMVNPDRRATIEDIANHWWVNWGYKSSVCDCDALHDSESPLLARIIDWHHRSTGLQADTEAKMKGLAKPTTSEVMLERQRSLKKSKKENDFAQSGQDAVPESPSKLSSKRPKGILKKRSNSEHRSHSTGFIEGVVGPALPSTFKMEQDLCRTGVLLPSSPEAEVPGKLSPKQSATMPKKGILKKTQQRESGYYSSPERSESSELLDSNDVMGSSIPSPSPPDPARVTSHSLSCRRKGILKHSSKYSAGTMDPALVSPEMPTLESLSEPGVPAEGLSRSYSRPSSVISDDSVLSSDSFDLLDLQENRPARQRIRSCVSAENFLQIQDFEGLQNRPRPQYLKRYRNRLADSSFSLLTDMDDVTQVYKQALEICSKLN
Chain of UniProt Q9NYL2 (whole entry, looked up): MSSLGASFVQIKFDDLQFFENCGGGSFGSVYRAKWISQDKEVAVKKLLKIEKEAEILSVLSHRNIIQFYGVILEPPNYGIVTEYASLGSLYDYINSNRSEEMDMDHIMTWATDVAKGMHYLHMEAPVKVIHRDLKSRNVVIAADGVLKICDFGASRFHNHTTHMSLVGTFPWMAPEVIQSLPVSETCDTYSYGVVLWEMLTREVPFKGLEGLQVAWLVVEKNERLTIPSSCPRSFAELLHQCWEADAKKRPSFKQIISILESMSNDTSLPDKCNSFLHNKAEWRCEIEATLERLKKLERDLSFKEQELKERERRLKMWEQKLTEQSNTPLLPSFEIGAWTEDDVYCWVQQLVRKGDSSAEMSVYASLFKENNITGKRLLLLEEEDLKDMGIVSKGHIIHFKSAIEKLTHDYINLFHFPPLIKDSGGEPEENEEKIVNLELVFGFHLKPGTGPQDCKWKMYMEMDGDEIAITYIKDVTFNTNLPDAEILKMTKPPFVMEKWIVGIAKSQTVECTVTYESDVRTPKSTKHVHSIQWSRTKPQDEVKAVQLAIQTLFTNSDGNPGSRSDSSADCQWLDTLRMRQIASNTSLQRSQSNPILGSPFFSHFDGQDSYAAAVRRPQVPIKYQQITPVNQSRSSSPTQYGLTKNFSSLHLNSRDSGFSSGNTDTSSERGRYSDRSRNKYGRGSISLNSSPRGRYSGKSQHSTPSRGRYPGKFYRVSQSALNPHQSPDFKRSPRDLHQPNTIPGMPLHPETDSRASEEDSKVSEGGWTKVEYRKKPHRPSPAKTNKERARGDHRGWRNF
Chain of UniProt Q9NY57 (whole entry, looked up): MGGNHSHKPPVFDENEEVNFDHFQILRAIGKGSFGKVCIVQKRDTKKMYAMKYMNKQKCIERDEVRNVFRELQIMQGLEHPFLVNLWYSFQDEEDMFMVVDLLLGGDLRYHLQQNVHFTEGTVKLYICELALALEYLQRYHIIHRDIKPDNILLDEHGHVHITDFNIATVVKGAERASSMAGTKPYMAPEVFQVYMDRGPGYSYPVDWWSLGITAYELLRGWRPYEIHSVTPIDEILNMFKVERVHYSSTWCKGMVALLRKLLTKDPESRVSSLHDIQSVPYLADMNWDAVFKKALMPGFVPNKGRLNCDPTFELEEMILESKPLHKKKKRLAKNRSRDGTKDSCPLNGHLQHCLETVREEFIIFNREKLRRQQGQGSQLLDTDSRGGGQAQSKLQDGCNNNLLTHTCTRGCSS
Chain of UniProt Q15139 (whole entry, looked up): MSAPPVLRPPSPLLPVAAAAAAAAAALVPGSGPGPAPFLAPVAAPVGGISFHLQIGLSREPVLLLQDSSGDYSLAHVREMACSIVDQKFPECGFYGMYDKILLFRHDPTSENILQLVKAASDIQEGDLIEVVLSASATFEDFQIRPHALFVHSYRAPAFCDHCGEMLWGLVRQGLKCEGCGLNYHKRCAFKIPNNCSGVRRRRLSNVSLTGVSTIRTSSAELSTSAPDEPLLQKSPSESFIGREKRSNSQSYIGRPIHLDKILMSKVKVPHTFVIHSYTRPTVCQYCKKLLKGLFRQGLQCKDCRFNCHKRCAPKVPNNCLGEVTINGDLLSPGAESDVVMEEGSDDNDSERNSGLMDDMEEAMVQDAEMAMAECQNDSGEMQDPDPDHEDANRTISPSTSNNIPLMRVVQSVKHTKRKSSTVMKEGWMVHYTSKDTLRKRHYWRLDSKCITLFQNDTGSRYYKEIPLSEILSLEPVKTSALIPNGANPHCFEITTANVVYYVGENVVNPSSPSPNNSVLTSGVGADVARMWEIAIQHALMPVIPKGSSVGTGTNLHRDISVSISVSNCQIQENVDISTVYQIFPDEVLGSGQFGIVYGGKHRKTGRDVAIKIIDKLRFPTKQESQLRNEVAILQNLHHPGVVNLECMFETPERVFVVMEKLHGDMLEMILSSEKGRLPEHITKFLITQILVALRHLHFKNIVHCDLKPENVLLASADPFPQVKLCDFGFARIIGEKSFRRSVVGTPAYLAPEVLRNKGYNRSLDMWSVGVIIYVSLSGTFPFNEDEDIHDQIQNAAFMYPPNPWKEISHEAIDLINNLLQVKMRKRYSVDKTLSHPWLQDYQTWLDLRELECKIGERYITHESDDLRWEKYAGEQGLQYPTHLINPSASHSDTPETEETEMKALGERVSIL

Sample 1 — Compound: O=C(Nc1ccccc1)Nc1cccc(Oc2ccc3nccn3n2)c1; concentration: 1 µM; measurement: remaining binding
cAMP-dependent protein kinase catalytic subunit alpha (PRKACA, Homo sapiens, UniProt P17612); competitive binding; PKAC-alpha: 52%
LIM domain kinase 2 (LIMK2, Homo sapiens, UniProt P53671); competitive binding panel; relative to: vehicle: 100%
Tyrosine-protein kinase receptor Tie-1 (TIE1, Homo sapiens, UniProt P35590); competitive binding panel; relative to: vehicle: 100%
Cyclin-dependent kinase 11A (CDK11A, Homo sapiens, UniProt Q9UQ88); competitive binding panel, refers to: CDC2L2; relative to: vehicle: 95%
Phosphatidylinositol 4,5-bisphosphate 3-kinase catalytic subunit alpha isoform (PIK3CA, Homo sapiens, UniProt P42336, I800L); competitive binding panel; relative to: vehicle: 100%
G protein-coupled receptor kinase 3 (GRK3, Homo sapiens, UniProt P35626); competitive binding panel; relative to: vehicle: 100%
Serine/threonine-protein kinase 4 (STK4, Homo sapiens, UniProt Q13043); competitive binding panel, refers to: MST1; relative to: vehicle: 100%
Tyrosine-protein kinase ABL1 (ABL1, Homo sapiens, UniProt P00519, T315I); competitive binding panel; relative to: vehicle: 93%
Serine/threonine-protein kinase Nek1 (NEK1, Homo sapiens, UniProt Q96PY6); competitive binding panel; relative to: vehicle: 100%
Membrane-associated tyrosine- and threonine-specific cdc2-inhibitory kinase (PKMYT1, Homo sapiens, UniProt Q99640); competitive binding panel; relative to: vehicle: 100%

Sample 2 — read-out: enzyme activity; action: inhibitor; concentration: 0.5 µM; relative to: control; measurement: remaining activity
Target: Mitogen-activated protein kinase kinase kinase 11 (MAP3K11, Homo sapiens, UniProt Q16584)
Chain of UniProt Q16584 (whole entry, looked up): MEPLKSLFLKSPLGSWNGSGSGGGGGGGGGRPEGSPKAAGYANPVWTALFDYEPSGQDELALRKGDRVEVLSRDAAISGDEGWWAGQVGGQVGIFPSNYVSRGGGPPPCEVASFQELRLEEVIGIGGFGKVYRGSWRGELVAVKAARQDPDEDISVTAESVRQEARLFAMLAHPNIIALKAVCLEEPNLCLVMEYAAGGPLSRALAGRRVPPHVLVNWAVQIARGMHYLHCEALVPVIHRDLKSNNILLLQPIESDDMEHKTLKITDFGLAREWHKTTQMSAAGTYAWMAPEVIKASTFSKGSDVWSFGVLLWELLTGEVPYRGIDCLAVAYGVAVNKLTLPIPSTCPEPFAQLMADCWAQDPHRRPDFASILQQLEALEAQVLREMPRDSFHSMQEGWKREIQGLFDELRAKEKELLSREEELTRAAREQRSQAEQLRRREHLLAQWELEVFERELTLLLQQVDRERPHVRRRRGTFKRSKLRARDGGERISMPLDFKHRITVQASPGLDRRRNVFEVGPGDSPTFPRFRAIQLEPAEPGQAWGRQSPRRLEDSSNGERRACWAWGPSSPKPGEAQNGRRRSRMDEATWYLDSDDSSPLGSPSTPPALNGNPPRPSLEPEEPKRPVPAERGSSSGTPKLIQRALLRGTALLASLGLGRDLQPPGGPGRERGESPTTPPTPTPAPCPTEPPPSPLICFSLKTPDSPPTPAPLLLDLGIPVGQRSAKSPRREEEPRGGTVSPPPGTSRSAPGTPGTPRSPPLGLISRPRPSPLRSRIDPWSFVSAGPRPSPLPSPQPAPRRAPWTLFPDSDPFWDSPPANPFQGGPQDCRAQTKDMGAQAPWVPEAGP
COc1cc2ncnc(Nc3cccc(Cl)c3)c2cc1OC: 84.1%
CCN(CC)CCNC(=O)c1c(C)[nH]c(/C=C2\C(=O)Nc3ccc(F)cc32)c1C: 68.4%
COc1cc2c(cc1OC)-c1[nH]nc(Nc3cccc(F)c3)c1C2: 93.9%
COc1cc2ncnc(Nc3ccc(O)c(Br)c3)c2cc1OC: 83.7%
Cc1cn(-c2cc(NC(=O)c3ccc(C)c(Nc4nccc(-c5cccnc5)n4)c3)cc(C(F)(F)F)c2)cn1: 109%
Cc1nc2cc3nc(-c4cccs4)cnc3cc2n1C: 91.1%
c1ccc(-c2[nH]ncc2-c2ccnc3ccccc23)nc1: 96.5%
Cn1nc2c3c(cccc31)C(=O)c1ccccc1-2: 97.2%
O=c1cc(-c2cccc3c2Sc2ccccc2S3)oc(N2CCOCC2)c1: 98.6%
O=C1C(Cl)=C(N2C(=O)CCC2=O)C(=O)c2ccccc21: 102%
Ic1cccc(CSc2nnc(-c3ccncc3)o2)c1: 99.6%
CCN(CC)C(=O)c1ccc(Nc2nc(OCC3CCCCC3)c3[nH]cnc3n2)cc1: 5.55%
c1ccc(-c2cnc(Nc3ccc(OCCN4CCCC4)cc3)s2)cc1: 84.4%
O=C(NC(NC(=S)Nc1ccc(F)c([N+](=O)[O-])c1)C(Cl)(Cl)Cl)C(c1ccccc1)c1ccccc1 (centres unmarked): 102%
Nc1cccc(-c2cc3c(Oc4cccc(O)c4)ncnc3[nH]2)c1: 52.4%
N#Cc1c(NC(=O)c2cccc3ccccc23)sc2c1CCCC2: 103%
CN([C@@H](Cc1ccc(OS(=O)(=O)c2cccc3cnccc23)cc1)C(=O)N1CCN(c2ccccc2)CC1)S(=O)(=O)c1cccc2cnccc12: 105%
CCOc1nc(NC(=O)Cc2cc(OC)ccc2OC)cc(N)c1C#N: 98.8%
CCN(CC)CCNC(=O)c1c(C)[nH]c(/C=C2\C(=O)Nc3ccc(Cl)cc32)c1C: 21%
O=C(Nc1cccc(Nc2nccc(Nc3cccc(C(F)(F)F)c3)n2)c1)C1CC1: 89.5%
O=C1c2ccccc2-c2n[nH]c3cccc1c23: 56.9%
N#C/C(=C\c1ccc(O)c(O)c1)C(=O)NCc1ccccc1: 97%
Cc1cc2ncc(-c3ccccc3)nc2cc1C: 97.3%
CN(C)C[C@H]1CCn2c(c(C3=C(c4cn(C)c5ccccc45)C(=O)NC3=O)c3ccccc32)C1: 95.2%
C[C@@H]1CCN(C(=O)CC#N)C[C@@H]1N(C)c1ncnc2[nH]ccc12: 104%

Sample 3 — read-out: cell-free assay; technique: competition with immobilised ligand; concentration: 1 µM; measurement: remaining binding
SMILES: CCS(=O)(=O)c1cc2cc(C[C@](O)(CC(C)(C)c3ccc(F)cc3C(N)=O)C(F)(F)F)[nH]c2cn1
Serine/threonine-protein kinase TAO1 (TAOK1, Homo sapiens, UniProt Q7L7X3): 88%
Cyclin-dependent kinase 17 (CDK17, Homo sapiens, UniProt Q00537): 88%
NUAK family SNF1-like kinase 1 (NUAK1, Homo sapiens, UniProt O60285): 100%
Ribosomal protein S6 kinase alpha-1, C-terminal kinase domain (RPS6KA1, Homo sapiens, UniProt Q15418): 87%
STE20/SPS1-related proline-alanine-rich protein kinase (STK39, Homo sapiens, UniProt Q9UEW8): 100%
NUAK family SNF1-like kinase 2 (NUAK2, Homo sapiens, UniProt Q9H093): 95%
Serine/threonine-protein kinase 32B (STK32B, Homo sapiens, UniProt Q9NY57): 94%
Mitogen-activated protein kinase kinase kinase 20 (MAP3K20, Homo sapiens, UniProt Q9NYL2): 87%
1-phosphatidylinositol 3-phosphate 5-kinase (PIKFYVE, Homo sapiens, UniProt Q9Y2I7): 97%
Serine/threonine-protein kinase D1 (PRKD1, Homo sapiens, UniProt Q15139): 100%
Death-associated protein kinase 3 (DAPK3, Homo sapiens, UniProt O43293): 97%
Epidermal growth factor receptor (EGFR, Homo sapiens, UniProt P00533, G719C): 100%
Myosin-IIIa (MYO3A, Homo sapiens, UniProt Q8NEV4): 94%

Sample 4 — read-out: RNA clamping; technique: fluorescence polarization; concentration: concentration not given; together with: FAM-labelled poly r(AG)8 RNA; direction: higher = more clamping; measurement: fluorescence polarization change
Target: Eukaryotic initiation factor 4A-I (EIF4A1, Homo sapiens, UniProt P60842)
Chain of UniProt P60842 (whole entry, looked up): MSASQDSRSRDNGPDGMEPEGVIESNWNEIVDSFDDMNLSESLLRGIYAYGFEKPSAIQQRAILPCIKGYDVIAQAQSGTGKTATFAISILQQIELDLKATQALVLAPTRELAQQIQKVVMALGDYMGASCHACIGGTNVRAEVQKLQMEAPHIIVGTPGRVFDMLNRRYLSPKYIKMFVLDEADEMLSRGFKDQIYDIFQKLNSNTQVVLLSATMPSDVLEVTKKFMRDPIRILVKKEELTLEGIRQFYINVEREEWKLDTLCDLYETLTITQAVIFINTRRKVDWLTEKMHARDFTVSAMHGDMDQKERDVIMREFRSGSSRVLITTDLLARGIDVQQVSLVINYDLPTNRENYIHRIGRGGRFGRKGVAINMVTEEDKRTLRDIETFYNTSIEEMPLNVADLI
COc1ccc([C@@]23Oc4cc(OC)cc(OC)c4[C@]2(O)[C@H](O)[C@H](C(=O)c2cc(C)c(C)o2)[C@H]3c2ccccc2)cc1: 11.5 mP
CONC(=O)[C@H]1[C@@H](O)[C@@]2(O)c3c(OC)cc(F)cc3O[C@@]2(c2ccc(Br)cc2)[C@@H]1c1ccccc1: 80.4 mP
COc1ccc([C@@]23Oc4cc(OC)cc(OC)c4[C@]2(O)[C@H](O)[C@H](C(=O)c2cc4cccc(OC)c4o2)[C@H]3c2ccccc2)cc1: 0.3 mP
C=CCOc1nc(-c2ccccc2)nc2c1[C@@H](c1ccccc1)[C@]1(c3ccc(OC)cc3)Oc3cc(OC)cc(OC)c3[C@]21O: -2.8 mP
COc1ccc([C@@]23Oc4cc(OC)cc(OC)c4[C@@](O)(C2=O)[C@H](c2ccccc2)[C@H]3c2ccccc2)cc1: 11.2 mP
COC(=O)[C@H]1[C@@H](O)[C@@]2(O)c3c(OC)cccc3N(C)[C@@]2(c2ccc(Br)cc2)[C@@H]1c1ccccc1: 3.1 mP
COc1ccc([C@@]23Oc4cc(OC)cc(OC)c4[C@@](O)(C2=O)[C@H](C(=O)N(C)OC)[C@H]3c2ccccc2)cc1: 13 mP
COc1ccc([C@]23[C@H](c4ccccc4)C[C@@H](O)[C@@]2(O)c2c(OC)cccc2N3C)cc1: 2.3 mP
C#CCCCOC(=O)/C=C/Cn1c(-c2ccccc2)nc2c(c1=O)[C@@H](c1ccccc1)[C@]1(c3ccc(OC)cc3)Oc3cc(OC)cc(OC)c3[C@]21O: 17.5 mP
COc1ccc([C@@]23Oc4cc(OC)cc(OC)c4[C@@]24NC(C)=N[C@@]4(O)[C@H](C(C)=O)[C@H]3c2ccccc2)cc1: 61.4 mP
C#CCN[C@@]12C(=O)[C@H](C(=O)OC)[C@@H](c3ccccc3)[C@]1(c1ccc(OC)cc1)Oc1cc(OC)cc(OC)c12: 2.2 mP

Some of these lines once more (sample 2):
Ic1cccc(CSc2nnc(-c3ccncc3)o2)c1: 99.6%
CCN(CC)CCNC(=O)c1c(C)[nH]c(/C=C2\C(=O)Nc3ccc(F)cc32)c1C: 68.4%
Cc1nc2cc3nc(-c4cccs4)cnc3cc2n1C: 91.1%
CN(C)C[C@H]1CCn2c(c(C3=C(c4cn(C)c5ccccc45)C(=O)NC3=O)c3ccccc32)C1: 95.2%
